Earlier results, collected from citations in different studies.
Numbered parts are unrelated; values within a part may stem from several laboratories. ± gives the spread as reported.
Sequence of UniProt Q9NSY1 (whole entry, looked up): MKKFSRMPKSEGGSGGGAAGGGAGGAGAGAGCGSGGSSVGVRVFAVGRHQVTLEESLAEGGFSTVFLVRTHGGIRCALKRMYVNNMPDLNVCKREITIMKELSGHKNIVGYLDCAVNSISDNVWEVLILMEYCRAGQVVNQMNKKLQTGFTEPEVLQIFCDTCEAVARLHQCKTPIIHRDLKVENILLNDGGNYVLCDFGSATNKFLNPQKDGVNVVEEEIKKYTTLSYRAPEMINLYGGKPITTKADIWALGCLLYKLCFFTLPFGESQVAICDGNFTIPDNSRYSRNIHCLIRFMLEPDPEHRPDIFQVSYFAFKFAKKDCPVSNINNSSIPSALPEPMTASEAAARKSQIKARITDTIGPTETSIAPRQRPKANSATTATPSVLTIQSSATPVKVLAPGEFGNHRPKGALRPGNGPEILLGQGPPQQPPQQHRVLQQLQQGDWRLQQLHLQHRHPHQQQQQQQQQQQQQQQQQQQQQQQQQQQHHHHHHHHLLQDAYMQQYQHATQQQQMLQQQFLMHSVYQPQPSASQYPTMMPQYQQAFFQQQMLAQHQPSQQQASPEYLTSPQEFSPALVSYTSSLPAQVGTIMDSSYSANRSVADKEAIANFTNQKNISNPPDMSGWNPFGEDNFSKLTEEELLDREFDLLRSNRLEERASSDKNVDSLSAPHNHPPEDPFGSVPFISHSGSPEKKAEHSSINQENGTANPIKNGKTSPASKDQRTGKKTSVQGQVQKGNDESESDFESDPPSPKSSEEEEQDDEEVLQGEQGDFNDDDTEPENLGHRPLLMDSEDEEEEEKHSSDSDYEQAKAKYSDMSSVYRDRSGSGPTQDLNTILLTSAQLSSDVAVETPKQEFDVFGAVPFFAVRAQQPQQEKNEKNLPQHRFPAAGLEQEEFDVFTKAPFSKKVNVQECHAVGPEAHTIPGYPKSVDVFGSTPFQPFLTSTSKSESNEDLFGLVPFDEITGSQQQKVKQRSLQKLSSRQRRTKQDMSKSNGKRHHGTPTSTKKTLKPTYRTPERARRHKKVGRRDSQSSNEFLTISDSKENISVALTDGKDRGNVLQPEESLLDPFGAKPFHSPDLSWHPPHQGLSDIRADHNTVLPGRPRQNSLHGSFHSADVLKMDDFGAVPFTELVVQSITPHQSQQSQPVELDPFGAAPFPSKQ
Sequence of UniProt C7C422 (whole entry, looked up): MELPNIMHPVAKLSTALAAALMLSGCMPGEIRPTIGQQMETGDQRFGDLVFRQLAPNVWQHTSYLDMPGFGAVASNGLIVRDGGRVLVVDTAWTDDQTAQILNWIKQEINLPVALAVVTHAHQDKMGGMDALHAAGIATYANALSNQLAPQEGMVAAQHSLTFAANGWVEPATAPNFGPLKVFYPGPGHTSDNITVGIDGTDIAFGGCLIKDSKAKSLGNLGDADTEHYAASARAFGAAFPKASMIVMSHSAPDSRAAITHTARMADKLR

Study 1 — observed: peptide-MHC binding; form: peptide
Target: HLA class I histocompatibility antigen, A alpha chain, allele A*80:01 (Homo sapiens, UniProt P04439)
For `MTRGLLGSY`, the IC50 was 174 nM.
`LMRGVKWLK` gave an IC50 of > 15000 nM.
`SSLLWGFYL` has an IC50 of > 20000 nM.
`GVEGIGLQY` gave an IC50 of 339 nM.
With `MEDCPNEGV` the IC50 was > 20000 nM.
`SHDLAPQFL` gave an IC50 of > 20000 nM.
For `SSDDFALIV`, the IC50 was 225 nM.
`ISLQEVFTM` gave an IC50 of > 20000 nM.
The IC50 of `HLKEKSSLR` is reported as > 20000 nM.
`LNWFEIWIV` gave an IC50 of > 20000 nM.
`ARLSSPIVL` gave an IC50 of > 20000 nM.
For `YMKFFGNFK`, the IC50 was > 20000 nM.
With `YMLMGFQLK` the IC50 was > 20000 nM.
For `LLDLEGHIL`, the IC50 was > 20000 nM.
`PSYQLPLPM` has an IC50 of > 20000 nM.
`ILLARLFLY` has an IC50 of 3.63 nM.
With `NTDAFSREY` the IC50 was 568 nM.
With `EGFDPRALI` the IC50 was > 20000 nM.
With `ITLFPSYQL` the IC50 was > 20000 nM.
`SAYYLDIGF` has an IC50 of > 20000 nM.
`MHGHGKHIL` gave an IC50 of > 20000 nM.
`ESEVDDPAM` has an IC50 of > 20000 nM.
`ETIEILRNY` has an IC50 of 9 nM.
`GTGDSRLTY` has an IC50 of 201 nM.
`ISDEFMWRY` has an IC50 of 163 nM.

Mixed results
Ar: Androgen receptor (Ar, Rattus norvegicus, UniProt P15207)
Sequence of UniProt P15207 (whole entry, looked up): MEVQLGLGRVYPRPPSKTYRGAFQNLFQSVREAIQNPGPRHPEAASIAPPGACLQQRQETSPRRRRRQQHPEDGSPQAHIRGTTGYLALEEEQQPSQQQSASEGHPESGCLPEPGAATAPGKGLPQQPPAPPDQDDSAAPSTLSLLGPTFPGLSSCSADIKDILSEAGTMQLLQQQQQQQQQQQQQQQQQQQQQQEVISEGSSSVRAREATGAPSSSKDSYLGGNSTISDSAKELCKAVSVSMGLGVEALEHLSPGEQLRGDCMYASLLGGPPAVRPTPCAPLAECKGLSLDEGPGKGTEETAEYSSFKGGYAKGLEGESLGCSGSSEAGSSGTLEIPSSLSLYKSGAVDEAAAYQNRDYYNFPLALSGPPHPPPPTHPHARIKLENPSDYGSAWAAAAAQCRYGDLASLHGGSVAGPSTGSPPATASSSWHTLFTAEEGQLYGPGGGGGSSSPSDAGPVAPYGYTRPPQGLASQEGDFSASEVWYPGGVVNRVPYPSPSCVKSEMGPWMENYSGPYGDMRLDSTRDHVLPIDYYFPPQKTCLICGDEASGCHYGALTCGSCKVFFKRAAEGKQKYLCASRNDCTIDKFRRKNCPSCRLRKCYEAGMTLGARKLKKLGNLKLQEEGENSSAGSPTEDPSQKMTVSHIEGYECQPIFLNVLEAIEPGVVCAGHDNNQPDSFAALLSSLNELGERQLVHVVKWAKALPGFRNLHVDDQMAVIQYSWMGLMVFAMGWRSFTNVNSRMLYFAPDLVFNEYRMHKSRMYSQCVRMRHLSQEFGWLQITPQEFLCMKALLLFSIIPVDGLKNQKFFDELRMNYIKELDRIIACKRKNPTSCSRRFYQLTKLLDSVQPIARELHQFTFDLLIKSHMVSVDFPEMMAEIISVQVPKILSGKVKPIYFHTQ
The NOAEL of `CCc1c2c(nc3ccc(OC(=O)N4CCC(N5CCCCC5)CC4)cc13)-c1cc3c(c(=O)n1C2)COC(=O)[C@]3(O)CC` is reported as 1.2 mg/kg (refers to: maternal toxicity; rat; organogenesis dosing).
`c1ccc2cc3c(cc2c1)-c1cccc2cccc-3c12` gave a logKow of 6.63 (slow stirring).
For `N=c1c2c(-c3ccccc3)c(-c3ccccc3)n(Cc3ccccc3)c2ncn1[C@H]1CC[C@H](O)CC1`, the intratumoral concentration was 4 µM (KPC mouse, pancreatic tumour; dose not given).
For `BP(=O)(OCC1CCC(n2ccc(N)nc2=O)O1)OP(=O)(O)OP(=O)(O)O` (centres unmarked), “relative incorporation efficiency” read 28 fold (drug-resistant MMLV reverse transcriptase; Rp stereoisomer; baseline: ddCTP).
With `O=C(O)c1cc(-c2ccc(C34CCN(CC3)CC4)cc2)c2ccc(-c3ccc(C(F)(F)F)cc3)cc2c1` the IC50 was 21600 nM (HepG2; cytotoxicity).
`c1ccc2c(c1)cc1ccc3cccc4ccc2c1c34` has a logKow of 6.69 (slow stirring).
Under “6-month overall survival rate”, `O=c1[nH]cc(F)c(=O)[nH]1` is recorded as 31% (metastatic pancreatic cancer patients; dose not given).
Under “complete metabolic response”, `N.N.[Cl][Pt][Cl]` is recorded as 69% (cervical cancer patients; dose not given, randomized phase II, without triapine, together with: radiation).
Under “maximum tolerated dose”, `CO[C@@H](C)Cn1c(=O)n(C)c2cnc3ccc(-c4cncc(C(C)(C)O)c4)cc3c21` is recorded as 200 mg twice daily (human breast cancer patients; together with: fulvestrant).
The Kd of `COc1ncccc1-c1cnn2ccc(N3CCN(C(=O)OC(C)C)CC3)nc12` is reported as 14 nM (BMP2K (Homo sapiens, UniProt Q9NSY1)).
Under “1-year survival rate”, `Nc1ccn([C@@H]2O[C@H](CO)[C@@H](O)C2(F)F)c(=O)n1` is recorded as 18% (metastatic pancreatic cancer patients; dose not given).
For `CCCC1COC(Cn2cncn2)(c2ccc(Cl)cc2Cl)O1` (centres unmarked), “binding activity call” read “active” (Ar; concentration not given).
For `CCCCN1CCC(COC(=O)c2ccc(N)c(OC)c2)CC1` [carbon-11 labelled], the Ki was 211 nM (SIGMAR1 (Homo sapiens, UniProt Q99720)).
The overall survival of `C[C@]12CC[C@@H]3c4ccc(O)cc4C[C@@H](CCCCCCCCC[S+]([O-])CCCC(F)(F)C(F)(F)F)[C@H]3[C@@H]1CC[C@@H]2O` (some centres unmarked) is reported as 26.4 months (human, ER+ breast cancer; dose not given).
For `CC(C)(O/N=C(\C(=O)N[C@@H]1C(=O)N2C(C(=O)[O-])=C(C[N+]3(CCNC(=O)c4ccc(O)c(O)c4Cl)CCCC3)CS[C@H]12)c1csc(N)n1)C(=O)O`, the kcat was 11 s⁻¹ (blaNDM-1 (Klebsiella pneumoniae, UniProt C7C422); substrate).
For `O=C(O)COc1cc(Cl)c(Cl)cc1Cl`, “AR binding call” read “inactive” (Ar; validation reference set; concentration not given).
Under mutation frequency, `CCN(CC)N=O` is recorded as “increased” (fingerprint mutation, refers to: T>A substitution; mouse, liver; concentration not given).
`C[C@H](Cn1cnc2c(N)ncnc21)OCP(=O)(O)O` has an IC50 of 120000 ± 19000 nM (OAT1; transport activity, inhibitor).
Under “cumulative urinary excretion”, `O=C(O)C(Br)Br` is recorded as 11.4 ± 5.5 µg (rat, urine; oral gavage, 40 mg/kg, 48 h, includes endogenous amounts).
`Cc1nc(NC(=O)N2CCC[C@H]2C(N)=O)sc1-c1ccnc(C(C)(C)C(F)(F)F)c1` — result for “maximum tolerated dose”: 400 mg once daily (human patients; single agent).
The Kd of `CCN(CC)C(=O)[C@@H]1C=C2c3cccc4[nH]cc(c34)C[C@H]2N(C)C1` is reported as 1.5 nM (HEK293, recombinant; binding, radioligand binding).
Under “blood to plasma ratio”, `Cc1ccc(-c2nc3ccc(C)cn3c2CC(=O)N(C)C)cc1` is recorded as 0.76 (human).
`COC(=O)[C@H]1[C@@H](c2ccc(F)cc2)C[C@@H]2CC[C@H]1N2C` has a Kd of 26 nM (recombinant cells; binding, radioligand binding).
With `CCCCCOc1ccc(-c2ccc(-c3ccc(C(=O)N[C@H]4C[C@@H](O)[C@@H](O)NC(=O)[C@@H]5[C@@H](O)[C@@H](C)CN5C(=O)[C@H]([C@@H](C)O)NC(=O)[C@H]([C@H](O)[C@@H](O)c5ccc(O)cc5)NC(=O)[C@@H]5C[C@@H](O)CN5C(=O)[C@H]([C@@H](C)O)NC4=O)cc3)cc2)cc1` the mean clearance was 1.3 L/h (typical invasive candidiasis patient; dose not given, male 70 kg).
`Cc1ncc2n1-c1ccc(Cl)cc1C(c1ccccc1F)=NC2` — result for “blood to plasma ratio”: 0.54 (human).

Some of these lines once more (study 1):
With `ITLFPSYQL` the IC50 was > 20000 nM.
`SAYYLDIGF` has an IC50 of > 20000 nM.
`MHGHGKHIL` gave an IC50 of > 20000 nM.
`ESEVDDPAM` has an IC50 of > 20000 nM.
`ETIEILRNY` has an IC50 of 9 nM.
`GTGDSRLTY` has an IC50 of 201 nM.
`ISDEFMWRY` has an IC50 of 163 nM.
